Assay results collected from several papers.
Protocols differ between the studies behind these lines. ± gives the spread as reported.

CO[C@H]1O[C@H](COC(c2ccccc2)(c2ccccc2)c2ccccc2)[C@@H](OS(=O)(=O)c2ccccc2)[C@H](OS(=O)(=O)c2ccccc2)[C@H]1OS(=O)(=O)c1ccccc1
inhibition (Ehrlich; cell growth or viability, MTT; 500 µg/mL, 24 h): 10.4%

O=Cc1c(O)ccc2ccccc12
log2 fold change (HUVEC; RNA sequencing, measured: ADM2; 75 µM, 24 h; relative to: DMSO): 5

CC(C)c1cccc(C(C)C)c1-n1c2c([n+](-c3c(C(C)C)cccc3C(C)C)[c]1[Au-][Cl])-c1cccc3cccc-2c13
IC50 ratio (human cancer cell lines; MTT; average over cell lines; relative to: compound over cisplatin): ~2 fold

COc1cc(/C=C/C(=O)/C=C(O)/C=C/c2ccc(OCC(=O)N3CCOCCOCCOCC3)c(OC)c2)ccc1OCC(=O)N1CCOCCOCCOCC1
inhibition (SK-LU-1; cell growth or viability, SRB; 5 µM): 6.27%

COc1ccc(NC(=O)COc2ccc(/C=C/C(C)=N/O)cc2OC)cc1
ROS positive cells (SH-SY5Y; DCFDA flow cytometry; 2.5 µM, added: amyloid beta 10 µM): 77.7%

COc1cc(CNC(=O)C[C@H](C)CCC=C(C)C)ccc1OCc1cn(-c2ccccc2Cl)nn1
growth (NCI/ADR-RES; SRB; 10 µM, 48 h): 24%

Cc1c(C)c(C)[c-](C)c1C.[C-]#[O+].[C-]#[O+].[C-]#[O+].[Cl-].[Cl-].[Cl-].[Ir+3].[Re+].c1cnc(-c2ncccn2)nc1
S-phase cells (MDA-MB-468; PI flow cytometry; 50 µM): 22.1%

CC(C)[C@@H](NC(=O)[C@H](N)CCCNC(=N)N)C(=O)N[C@H](CCCCN)C(=O)N[C@@H](C(=O)N[C@H](CCCCN)C(=O)N[C@@H](C(=O)N[C@@H](C(=O)N[C@@H](C(=O)N[C@@H](C(=O)N[C@H](CCCNC(=N)N)C(=O)N[C@H](CCCNC(=N)N)C(=O)N[C@H](CCCNC(=N)N)C(=O)N[C@H](CCCNC(=N)N)C(=O)N[C@H](CCCNC(=N)N)C(=O)N[C@H](CCCNC(=N)N)C(=O)N[C@H](CCCNC(=N)N)C(=O)N[C@H](CCCNC(=N)N)C(=O)N[C@H](CCCNC(=N)N)C(N)=O)C(C)C)C(C)C)C(C)C)C(C)C)C(C)C
CD25 expression (human PBMC NK cells CD3-CD56+; flow cytometry; concentration not given, 72 h, unstimulated): increased

COc1cc(CNC(=O)C[C@H](C)CCC=C(C)C)ccc1OCc1cn(-c2ccccc2F)nn1
growth (NCI/ADR-RES; SRB; 10 µM, 48 h): 54.8%

CN(CCOCCOCCOCCNc1cccc2c1C(=O)N(C1CCC(=O)NC1=O)C2=O)CC[C@H](CSc1ccccc1)Nc1ccc(S(=O)(=O)NC(=O)c2ccc(N3CCN(CC4=C(c5ccc(Cl)cc5)CCC(C)(C)C4)CC3)cc2)cc1S(=O)(=O)C(F)(F)F (stereo partly shown)
selectivity ratio (MOLT-4 cells, human platelets; MTS; relative to: MOLT-4 over platelets): 112 fold

COc1cc(CNC(=O)C[C@H](C)CCC=C(C)C)ccc1OCc1cn(-c2ccc(C#N)cc2)nn1
growth percent (COLO 205; SRB; 10 µM, 48 h): 95.6%

CC(=O)Oc1ccccc1C(=O)[O][Pt]([NH2])([NH2])([Cl])([Cl])[O]C(=O)CCCc1ccccc1
selectivity index (HEK293 and BCPAP; cytotoxicity, MTT; relative to: IC50 HEK293 over IC50 BCPAP): 1.8

COc1cc(CNC(=O)C[C@H](C)CCC=C(C)C)ccc1O
growth percent (UO-31; SRB; 10 µM, 48 h): 60.7%

CC(=O)N1CCC[C@H]1C(=O)N[C@@H](CC/C=C/C(=O)N(C)C)C(=O)N[C@@H](CCNC(=O)CCCCCN1C(=CC=CC=CC2=[N+](C)c3ccc(S(=O)(=O)[O-])cc3C2(C)C)C(C)(C)c2cc(S(=O)(=O)O)ccc21)C(=O)N1CCC[C@H]1C(=O)N[C@@H](Cc1ccccc1)C(N)=O
Pearson colocalization coefficient (NRK cells; measured: fluorescent α2-macroglobulin; 1 µM): 0.79

COc1cc(CNC(=O)C[C@H](C)CCC=C(C)C)ccc1OCc1cn(-c2ccc(F)cc2)nn1
growth percent (SK-MEL-28 melanoma cells; SRB; 10 µM, 48 h): 89.6%

CCCCCCCCCCCCCCCC(=O)N[C@@H](CCC(=O)NCCCC[C@H](NC(=O)[C@H](CC(=O)O)NC(=O)[C@H](CO)NC(=O)[C@@H](NC(=O)[C@H](Cc1ccccc1)NC(=O)[C@@H](NC(=O)CNC(=O)[C@H](CCC(N)=O)NC(=O)[C@H](CO)NC(=O)[C@@H](N)Cc1c[nH]cn1)[C@@H](C)O)[C@@H](C)O)C(=O)N[C@@H](CO)C(=O)N[C@@H](CCC(=O)O)C(=O)N[C@@H](Cc1ccc(O)cc1)C(=O)N[C@@H](CC(C)C)C(=O)N[C@@H](CC(=O)O)C(=O)N[C@@H](CO)C(=O)N[C@@H](CCC(=O)O)C(=O)N[C@@H](CCCNC(=N)N)C(=O)N[C@@H](C)C(=O)N[C@@H](CCCNC(=N)N)C(=O)N[C@@H](CC(=O)O)C(=O)N[C@@H](Cc1ccccc1)C(=O)N[C@H](C(=O)N[C@@H](C)C(=O)N[C@@H](Cc1c[nH]c2ccccc12)C(=O)N[C@@H](CC(C)C)C(=O)N[C@@H](CCC(=O)O)C(=O)N[C@@H](C)C(=O)NCC(=O)NCC(=O)O)C(C)C)C(=O)O
EC50 (primary rat hepatocytes; cAMP accumulation, agonist; 0.1% BSA): 0.462 ± 0.057 nM
